Measured values collected from several papers.
Each numbered part is a random draw from the data of one study; scales do not carry over between parts. Positions count from the first letter of the parent shown.

Sample 1
Target: CCNE1, cyclin fold, Cln2 fusion (human)
Method: yeast growth competition, sequencing
Matrix: yeast
Setting: strong parent motif
Relative to: not given
Direction: higher = stronger binding
Endpoint: normalised enrichment score
Starting sequence: BRCA2 docking peptide (human); CKKRRALDFLSRL
CKKRRALDFLARL [S11A]: 1.68
CKKRRALDFLSRA [L13A]: 1.09
CKKRKALDFLSRL [R5K]: 0.707
CKKRKALDLLSRL [R5K F9L]: 0.705
CKKRRAADFLSRL [L7A]: 1.37
CAKRRALDFLSRL [K2A]: 1.78
AKKRRALDFLSRL [C1A]: 0.957
CKKARALDFLSRL [R4A]: 0.518
CKKRAAADFLSRL [R5A L7A]: 0.774

Sample 2
Target: Fragile X messenger ribonucleoprotein 1, C-terminal low-complexity region (Fmr1, Mus musculus, UniProt P35922)
Method: RNA Bind-n-Seq
Molecule type: RNA
Matrix: in vitro
Concentration: 200 nM
Setting: whole 134-nt RNA, ends assumed
Added: 150 mM KCl
Relative to: input library
Direction: higher = stronger binding
Endpoint: log2 enrichment
Constant ends, left off below: GGGAGUUCUACAGUCCGACGAUC … UGGAAUUCUCGGGUGUCAAGG
CCUCAAGUCCUGUGCUACACAUCGUAUGUACCGAAUCGGAGGUGGUUUUUGGAAAGUAUUAUGUUACGCCGUUCGGAUCUGCACUUCCAG: 0.0606
AGUCCUGUGCUACACAUCGUAUGUACCGAAUCGGGGUUUGGGGUUUGGGGAAAGGGGAAAGUAUUAUGUUACGCCGUUCGGAUCUGCACU: 0.861
CUCAAGUCCUGUGCUACACAUCGUAUGUACCGAAUCGGAGGUUUUUGGAAAGGAAAGUAUUAUGUUACGCCGUUCGGAUCUGCACUUCCA: -0.482
ACCAUGCAGGUGGGCCUCUUUGGGAAGUGGGGCAAGGGGGGGAUAGGGAGGGGGGUAACACUUUGGGAACAGGUGGUCCCAGGUCGUUUC: 0.861
UCAAGUCCUGUGCUACACAUCGUAUGUACCGAAUCGGAAAAAGGUGGUUUUUGGAAAGUAUUAUGUUACGCCGUUCGGAUCUGCACUUCC: -0.655
GCUCGCCCGAGCUCAGAGGUGAUCAAAGACGCCAACUUGUACAUCAGCGGGCUCCCGCGGACCAUGACCCAGAAGGACGUAGAAGACAUG: -0.632
GUCCUGUGCUACACAUCGUAUGUACCGAAUCGGGAAAAAGGGAAAAAGGGAAAAAGGGGAAAGUAUUAUGUUACGCCGUUCGGAUCUGCA: -0.0727
UGGAUCAAGAGGAAGUAAAAAGAAUUACCAGUCACAGGCUGACAUUCCCAUUCGGUCUCCCUUUGGUAUUGUGAAAGCAUCCUGGCUACC: -0.098
UCCUGUGCUACACAUCGUAUGUACCGAAUCGGGUUUUUUGGGUUUUUUGGGUUUUUUGGGAAAGUAUUAUGUUACGCCGUUCGGAUCUGC: 0.166
AAGUCCUGUGCUACACAUCGUAUGUACCGAAUCGGGGUUUUGGGUUUUGGUUUUGGGAAAGUAUUAUGUUACGCCGUUCGGAUCUGCACU: -0.0406
UGUGAGGUGGAUUUUGUUUAUUUUUUUAGCUCAUUUCCAGGGGUGGGAAUUUUUUUUUAAUAUGUGUCAUGAAUAAAGUUGUUUUUGAAA: 0.0958
CACAGACAACACGCACCCACACAGACACAGAGGGAAGGGGUUGGGAUGGGGACAGGAAACACAGCAGGGCGGGGUAGGACCCCAGCCCCU: 1.21
AAGUCCUGUGCUACACAUCGUAUGUACCGAAUCGGAAAAAAAGGUUUGGUUUUUGGAAAGUAUUAUGUUACGCCGUUCGGAUCUGCACUU: -1.16
CUGUGCUACACAUCGUAUGUACCGAAUCGGGGUUUUUUUGGGGUUUUUUUGGGUUUUUUUGGAAAGUAUUAUGUUACGCCGUUCGGAUCU: -0.0622

Sample 3
Target: RING finger protein unkempt homolog, zinc fingers 1-6, GST-SBP tag (UNK, Homo sapiens, UniProt Q9C0B0, residues 30-357)
UniProt Q9C0B0, sequence (30-357, looked up): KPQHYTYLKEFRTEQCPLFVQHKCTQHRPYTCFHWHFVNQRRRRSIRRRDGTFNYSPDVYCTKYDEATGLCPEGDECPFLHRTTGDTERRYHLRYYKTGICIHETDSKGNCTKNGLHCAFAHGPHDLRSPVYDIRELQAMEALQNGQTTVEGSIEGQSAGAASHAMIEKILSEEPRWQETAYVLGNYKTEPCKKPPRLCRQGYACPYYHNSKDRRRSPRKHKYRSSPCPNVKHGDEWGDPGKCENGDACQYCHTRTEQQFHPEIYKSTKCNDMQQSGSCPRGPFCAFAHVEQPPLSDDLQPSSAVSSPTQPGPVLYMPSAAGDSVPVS
Method: RNA Bind-n-Seq
Molecule type: RNA
Matrix: in vitro
Concentration: not given
Setting: RNA with constant flanks, human-mouse chimeric sites, ends assumed
Relative to: input RNA pool
Direction: higher = stronger binding
Endpoint: bound/input enrichment
Constant ends, left off below: GGGAGUUCUACAGUCCGACGAUC … CAACAGAGGAUUGAGCAUCA
UUGAAAACAAACUGAUUUAAGUUUGAGUAUCACAAUGUUAGCUUUCUAAUUCCAUAAAAGUACUUGGUUUUUACAGUUUAUAAUCUGACAUCACCCCCCGUUUAUAAGUAAAGAGCAACU: 0.815 ratio
GGGUGGGUGGUCAUUGCCGUUUGAGCUGCUGAUUUUCAUGAGUCGCCUUCAAAACUCUCGUGUAGGGUUGACACUGUGGGGGGGUGGGGGAUCCAGCUUAUUCUUUUAUUUUCAAGUCCA: 0.347 ratio
CCUCCCCCGGGCCACCCACCCCUCCCGGCUCCCCGCCGAGAUCCAGGUUUCUUCUUAUUUCAUAGCAAAUAAGAAAAAUGUUCUACGCACAUUUUGUCCUCAGUAAACGAGGGCCUCUGG: 1.38 ratio
GUGACUGGUGUUAAGAUUUCCCCUCAGCAAAGAAGUGUAGCAGUGACCAUAAUUCCAUCUGUGGUGAGUGCCAGUCAGAUUGUGGAGCUGGUUCCAGACCUCAGUUUAGACAUGGGAACU: 0.342 ratio
UAAAUUAGGGCUGCCGUUUUCUGUUUCUCCCUGGGCUGCGGAAAGCCAGAAGAUUUUAUCUAGCUUAUACAAGGCUGCUGGUGUUCCCUCCCUCCCGCCACGAGGGUGUUUUUGGCUGCA: 0.613 ratio
AUUGUUGAAGCGAAUCCACUUUUAGAAGCAUUUGGAAAUGCAAAGACUGUUCGCAACAAUAAUAGCAGUCGAUUUGGGAAAUUUGUAGAAAUUCAUUUUAAUGAAAAGAGUUCGGUUGUU: 0.641 ratio
UCCCAAAUCCAGCAGCUAGAAGGAGCCUUGAGACAAACACUCCACACACAGGGAAGGCGAUAACAUUGUACAUUGGUUUACAUUUUUCUCCUUGAAUGAUUUUUCUAGAGGUCAUAGUGC: 0.53 ratio
GGGACUGAUUCAUCCCAAGGACAGGCCACCCCAUUUGGUGUUUGGAAUGACGACAGUAUGGAAGGGCCUAGUCAAAAUGUUGAAGCUGAGUCAAUUCAGGAUGCCAUGAGUAUGGAAGAG: 0.264 ratio
UCUGGUCACACUCGUGUGUAUGGUGUUUGCUUUGUGGACACUUCACUGGGCAAGUUUUUCAUCGGCCAGUUUUCGGAUGACCGCCACUGUUCGAGAUUUAGGACUCUAGUGGCUCACUAU: 0.139 ratio
AAAUCGUGUGUGUCCAAUAUUGAAAGUGCUUUAUCUACACUCCAGUAUGUAAGCAGCAUAGUAGUUUCUUUAGAGAAUAGGUCUGCCAUUGUAAAGUACAAUGCAAGCUUAGUCACUCCA: 1.82 ratio
AUGGUUGUGUCUCUUGAGAUCUAAAAACAAGAUGACUUUUCCUGGCACAUAUUCCAAAGCAUAGACUUUGUUGCCUGCUGCUUAUUGUCUAAUUUACAGGGAUAUUUAAUUUUGUCAGGU: 0.259 ratio

Sample 4
Target: Sal-like protein 4, full length isoform B (SALL4, Homo sapiens, UniProt Q9UJQ4-2, residues 1-616)
Method: universal PBM
Molecule type: double-stranded DNA, one strand shown
Matrix: in vitro
Concentration: not given
Setting: 8-mer, flanks averaged, mean of replicates
Direction: higher = stronger binding
Endpoint: E-score
ACAGAGTG: 0.0484
ATTTAGAC: 0.222
ATCCCTGC: 0.0403
ACATTGAC: 0.154
GGCGAGGA: -0.0406
CGATCAGC: -0.182
AACCACGG: -0.267
TAGAACCA: 0.0502
AGCGTTCA: -0.131
CAACCGTC: -0.261
CATCGCCA: 0.0022
AGGCCCAG: -0.233
CCTAGGTA: -0.0192
ACTGTGCT: 0.0186
CAAGCCGA: -0.173
CATAAAGA: 0.307
ATCTGGAG: 0.0202
ATCGGGTG: -0.195
GCACAGAA: -0.0405
CATCGAGC: -0.201

Sample 5
Target: CREB3L4, bZIP domain (human)
Method: DHFR protein complementation
Matrix: yeast
Setting: single substitutions, most at no-binding floor
Relative to: wild-type JUN-FOS pair
Direction: higher = stronger binding
Endpoint: binding fitness
Starting sequence: JUN, bZIP domain (human); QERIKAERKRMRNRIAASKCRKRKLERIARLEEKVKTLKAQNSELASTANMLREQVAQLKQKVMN; partner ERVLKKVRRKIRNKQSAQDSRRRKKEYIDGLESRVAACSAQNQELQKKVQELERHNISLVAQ
A46M: -1.49 natural log
S43I: -1.52 natural log
L31V: -1.51 natural log
K36V: -1.46 natural log
R30F: -1.55 natural log
E32G: -1.4 natural log
R53W: -1.47 natural log
E33D: -1.53 natural log
N42F: -1.41 natural log
I28L: -1.26 natural log
T37L: -1.3 natural log
S43F: -1.38 natural log
S43N: -1.31 natural log
A29W: -1.43 natural log
L45S: -1.46 natural log
E44F: -1.56 natural log
R30E: -1.18 natural log
R30K: -1.31 natural log
L45Y: -1.14 natural log
Q41N: -1.57 natural log
K36L: -1.49 natural log
L31A: -1.51 natural log
A49T: -1.56 natural log
K34V: -1.25 natural log
Q41R: -1.49 natural log

Sample 6
Target: ABI1, truncated, D143A, DHFR fusion (Arabidopsis thaliana)
Method: DHFR PCA, deep sequencing
Matrix: yeast
Setting: methotrexate growth selection, single substitutions
Added: (+)-ABA 0 µM
Relative to: wild-type fitted maximum
Direction: higher = stronger binding
Endpoint: relative binding score
Starting sequence: PYL1, truncated, DHFR fusion (Arabidopsis thaliana); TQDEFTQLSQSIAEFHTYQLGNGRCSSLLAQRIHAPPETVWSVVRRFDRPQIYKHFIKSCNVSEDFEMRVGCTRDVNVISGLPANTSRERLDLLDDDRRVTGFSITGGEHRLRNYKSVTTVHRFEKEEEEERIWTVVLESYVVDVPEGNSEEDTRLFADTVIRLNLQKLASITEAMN
E147P: 31.2%
L28S: 2.92%
Q19F: 2.66%
R69S: 14%
L138K: -0.955%
T39Y: 7.86%
E64R: 22.5%
E139T: 12.1%
E89G: 2.19%
L112K: 1.55%
L169M: -1.43%
V142L: -5.68%
Q31K: 13.8%
L29A: -4.14%
I105F: -0.254%
C72K: 1.23%
Y53N: -5.52%
V143H: -3.85%

Single results of other studies
PhoQ, residues 284 288 289 292 302 303 NLSRDF  fold induction (PhoP, residues 12 14 15 18 19 NQFFI (Escherichia coli, UniProt P23836); Sort-seq, refers to: YFP reporter; E. coli; PhoQ-PhoP variant library, added: 10 µM Mg2+; relative to: high Mg2+ state, higher = stronger signaling): 19.4

For quick reference, copied from above (sample 4):
ACAGAGTG: 0.0484
ATTTAGAC: 0.222
ATCCCTGC: 0.0403
ACATTGAC: 0.154
GGCGAGGA: -0.0406
CGATCAGC: -0.182
AACCACGG: -0.267
TAGAACCA: 0.0502
AGCGTTCA: -0.131
CAACCGTC: -0.261
